Measured values pooled from the literature.
Lines come from different studies, so protocols differ. “And” joins repeats or separate records; there may be more than shown. ± gives the spread as reported.
Cell line: HEK293

With `COc1cc2c(OCCCN3CCN(CCO)CC3)c3c(c(-c4ccc5c(c4)OCO5)c2cc1OC)C(=O)OC3` the IC50 was 0.104 ± 0.0212 µM (endosomal acidification).
For `CN(CCO)c1ncnc2[nH]cc(-c3cccc(Cl)c3)c12`, “phosphorylated MOB1 level” read “decreased” (Western blot, measured: MOB1 phospho-Thr35; 10 µM, 4 h, with: H2O2 50 µM for 2 h; reference: DMSO).
For `COc1cc2c(O)c3c(c(-c4ccc5c(c4)OCO5)c2cc1OC)C(=O)OC3`, the endosomal pH was 7 (FITC-dextran; 1 to 7 µM, 4 h).
For `C[C@@H](c1cc(Cl)cc(Cl)c1)N(C)c1ncc2c(N)nc(N)nc2n1`, the selectivity index was 3.82 (MTT; reference: CC50 over IC50).
With `C/C=C(/C)C(=O)O[C@H]1C(C)=C2[C@H]([C@@H]1OC(=O)CCCCCCC)[C@@](C)(OC(C)=O)C[C@H](OC(=O)CCC)[C@@]1(O)[C@H]2OC(=O)[C@@]1(C)O` the protein level was 1.22 and 1.03 and 1.12 (western blot, measured: total eIF2α; 3 µM, 6 h, unit not given; reference: mock).
With `CO[C@H]1C[C@@H](C[C@H](C)[C@H]2CC(=O)[C@@H](C)/C=C(\C)[C@H](O)[C@H](OC)C(=O)[C@@H](C)C[C@@H](C)/C=C/C=C/C=C(\C)[C@H](OC)C[C@H]3CC[C@H](C)[C@](O)(O3)C(=O)C(=O)N3CCCC[C@@H]3C(=O)O2)CC[C@@H]1OCCO` (racemic) the selectivity index was 50.9 (MTT; reference: CC50 over IC50).
`C[C@H]1CCC/C=C/[C@@H]2C[C@H](O)C[C@H]2[C@H](O)/C=C/C(=O)O1` — result for “secreted Gaussia luciferase”: 0.0413 (protein secretion; concentration not given, unit not given; reference: mock).
`Clc1cccc(-c2c[nH]c3ncnc(N4CCOCC4)c23)c1` — result for “YAP/TAZ-TEAD reporter activity”: “increased” (reporter gene, 8xGTIIC luciferase; 10 µM, 48 h; reference: DMSO).
`COc1cc2c(O)c3c(c(-c4ccc5c(c4)OCO5)c2cc1OC)C(=O)N(/N=C/c1c(F)c(F)c(F)c(F)c1F)C3` has an IC50 of > 10 µM (endosomal acidification; 4 h).
`OC1CCN(c2ncnc3[nH]cc(-c4cccc(Cl)c4)c23)CC1`: “YAP/TAZ-TEAD reporter activity” “increased” (reporter gene, 8xGTIIC luciferase; 10 µM, 48 h; reference: DMSO).
With `CC(C)(C)C(O)C(Oc1ccc(-c2ccccc2)cc1)n1cncn1` (stereo not shown) the selectivity index was 11.6 (MTT; reference: CC50 over IC50).
For `CC(=O)NC1CCN(c2ncnc3[nH]cc(-c4cccc(Cl)c4)c23)CC1`, “phosphorylated MOB1 level” read “decreased” (Western blot, measured: MOB1 phospho-Thr35; 10 µM, 4 h, with: H2O2 50 µM for 2 h; reference: DMSO).
The IC50 of `COc1cc2c(OC(C)=O)c3c(c(-c4ccc5c(c4)OCO5)c2cc1OC)C(=O)N(CCO)C3=O` is reported as > 10 µM (endosomal acidification; 4 h).
